Experimental data from different studies.
± marks the error that the study gave.

C[C@@H]1OC(=O)NN=C1c1ccc(-c2ccc(F)cc2)c(C(F)(F)F)c1
patients with adverse event (phase I trial, measured: AST increased worst grade 1; human patients; 20 mg loading then 1 mg daily): 50%

COc1ncnn2ccc(-c3cnc4nc(C)n(Cc5nnc([C@@H](C)F)o5)c4c3)c12
patients with dehydration (human; oral, dose not given, grade 3): 0%

CC(C)(c1ccccc1)c1cc(-n2nc3ccccc3n2)c(O)c(C(C)(C)c2ccccc2)c1
mean daily dermal uptake (exposure assessment; human, age 21-60 years; cream): 0.9 ng/kg body weight/day

COc1cc2c(Oc3ccc4[nH]c(C)cc4c3F)ccnc2cc1OCC1(N)CC1
grade 3 Tinnitus (paediatric recurrent refractory sarcoma; concentration not given, whole group): 0%

CCc1ccc(CC/C=C/c2ccc3c(c2)C(=O)CC3)cc1
GGT serum activity (Sprague-Dawley rat, male; oral, 30 mg/kg/day, 14 days): 0.67 U/L

O=C1Nc2cc3[nH]nc(-c4ccncc4)c3cc2CN1Cc1ccccc1
patients with cough (CTCAE v4.03; advanced solid tumour patients; intravenous, 0.9 mg/kg, schedules 1/2): 0%

CC[C@H](C)[C@H](NC(=O)[C@H](Cc1ccccc1)NC(=O)[C@H](CCC(=O)O)NC(=O)[C@H](CCCNC(=N)N)NC(=O)[C@H](C)NC(=O)[C@H](C)NC(=O)[C@H](CCC(N)=O)NC(=O)[C@H](CCC(=O)O)NC(=O)[C@H](CCC(=O)O)NC(=O)[C@H](CC(C)C)NC(=O)[C@H](Cc1ccc(O)cc1)NC(=O)[C@H](CO)NC(=O)[C@H](CO)NC(=O)[C@@H](NC(=O)[C@H](CC(=O)O)NC(=O)[C@H](CO)NC(=O)[C@@H](NC(=O)[C@H](Cc1ccccc1)NC(=O)[C@@H](NC(=O)CNC(=O)[C@H](CCC(=O)O)NC(=O)[C@H](C)NC(=O)CCc1cnc[nH]1)[C@@H](C)O)[C@@H](C)O)C(C)C)C(=O)N[C@@H](C)C(=O)N[C@@H](Cc1c[nH]c2ccccc12)C(=O)N[C@@H](CC(C)C)C(=O)N[C@H](C(=O)N[C@@H](CCCNC(=N)N)C(=O)NCC(=O)N[C@@H](CCCNC(=N)N)C(=O)N[C@@H](CCCCNC(=O)COCCOCCNC(=O)COCCOCCNC(=O)CC[C@H](NC(=O)CCCCCCCCCCCCCCCCC(=O)O)C(=O)O)C(=O)NCC(=O)NCC(=O)N[C@@H](CO)C(=O)N[C@@H](CCCCNC(=O)[C@H](CCCCNC(=O)[C@H](CCCCNc1c(NCCCCCN(O)C(=O)CCC(=O)NCCCCCN(O)C(=O)CCC(=O)NCCCCCN(O)C(C)=O)c(=O)c1=O)Nc1c(NCCCCCN(O)C(=O)CCC(=O)NCCCCCN(O)C(=O)CCC(=O)NCCCCCN(O)C(C)=O)c(=O)c1=O)NC(=O)[C@H](CCCCNc1c(NCCCCCN(O)C(=O)CCC(=O)NCCCCCN(O)C(=O)CCC(=O)NCCCCCN(O)C(C)=O)c(=O)c1=O)Nc1c(NCCCCCN(O)C(=O)CCC(=O)NCCCCCN(O)C(=O)CCC(=O)NCCCCCN(O)C(C)=O)c(=O)c1=O)C(=O)O)C(C)C [zirconium-89 labelled]
tissue uptake (ex vivo gamma counting; male Sprague-Dawley rats, pancreas; intravenous, 1 nmol, 24 h): 0.35 %ID/g

CN1CC[C@@H](c2c(O)cc(O)c3c(=O)cc(-c4ccc(C(F)(F)F)cc4Cl)oc23)[C@@H]1CO
patients with adverse event (measured: Neutropenia; AML; oral, 150 mg, intermittent dosing): 25%

C[C@]1(CO)Cc2ncn(-c3ccc(C#N)c(Cl)c3)c2C(=O)O1
drug-related AE incidence (human; concentration not given, European MRD and food-effect parts): 13.9%

O=S(=O)(Nc1ccccc1)c1ccc(NC(=S)Nc2ccccc2)cc1
blood chemistry level (measured: TBIL; male mouse, blood; oral, 80 mg/kg daily, 14 days): 0.7 mg/dL

COc1ccc(-c2c(-c3ccc(C#N)c(F)c3)nc(N3CCC(N)CC3)n(C)c2=O)cc1F
treatment-related adverse event incidence (measured: Anemia; human patients; oral, dose not given, any grade, dose escalation, NG): 2%

CC(C)C(=O)OC[C@H]1O[C@@H](n2ccc(NO)nc2=O)[C@H](O)[C@@H]1O
autosampler stability (rat maternal blood dialysate; 5 ng/mL, 6 h, 10 °C, low QC concentration, together with: NHC 25 ng/mL): 101 ± 6.07%

COc1c(OCCCN2CCOCC2)ccc2c1N=C(NC(=O)c1cnc(N)nc1)N1CCN=C21
oral mucositis incidence (patients with advanced malignancies; intravenous, dose not given, all grades, all cohorts, together with: gemcitabine): 22%
